Results collected from several papers.
Each line is one published result; not all experiments were run side by side. ± marks the error that the study gave.
Sequence of UniProt P9WNC5 (whole entry, looked up): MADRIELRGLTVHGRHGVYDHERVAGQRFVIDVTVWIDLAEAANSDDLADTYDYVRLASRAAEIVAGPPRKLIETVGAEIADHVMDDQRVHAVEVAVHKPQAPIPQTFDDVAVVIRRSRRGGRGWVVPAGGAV

Molecule	target or system	assay	test system	conditions	how to read	measurement	result
SIAIPTNFTISVTTE	human CD4 T cells	AIM	peptide	–	–	responding donors	8%
CCc1c(C(=O)C(N)=O)c2c(OCC(=O)O)cccc2n1Cc1ccccc1	–	inhibitor	human platelet-poor plasma	100 µM, together with: snake venom	–	prothrombin time	no inhibition
RIKASMPTT	–	AIM	peptide, CD8+ T cells from PBMC, human donors	HLA-A*30:01 restricted, unit not given	reference: positive over tested donors	frequency of responding donors	100
bavachinin	Spike glycoprotein (Severe acute respiratory syndrome coronavirus 2, UniProt P0DTC2)	binding	–	1:1 binding model	–	Kd	11.8 µM
FolB (Mycobacterium tuberculosis, UniProt P9WNC5)	Nc1nc2c(c(=O)[nH]1)N=C([C@H](O)[C@H](O)CO)CN2	steady-state kinetics	–	pH 7, 25 °C	–	kcat/Km	36000 ± 5500 M⁻¹ s⁻¹
tricresyl phosphate	KCNH2 (Homo sapiens, UniProt Q12809)	thallium flux, inhibitor	hERG transduced cells	–	–	IC50	9.7 ± 1.6 µM
IATNGPLKVGGSCVL	human CD4 T cells	AIM	peptide	–	–	responding donors	8%
CCc1ccc(Sc2cc(C(=O)NCCCN3CCCC(C)C3)c3ccccc3n2)cc1 (stereo not shown)	SARS-CoV-2	cytopathic effect	USA_WA1/2020	first round 5-point	–	AC50	11.2 µM
Nc1ncnc2c([C@@H]3N[C@H](CO)[C@@H](O)[C@H]3O)c[nH]c12	Marburg marburgvirus	virus production	HeLa, Musoke	1.6 µM	–	supernatant virus titre	5e+06 PFU/mL
CC(C)(C)NCc1ccc(Nc2ccnc3cc(Cl)ccc23)cc1O	SARS-CoV-2	cytopathic effect, cell-based CPE	USA_WA1/2020	round 2, 5-point dilution	–	AC50	3.16 µM
CNC(=O)[C@@H](NC(=O)[C@H](CC(C)C)[C@H](O)C(=O)NO)C(C)(C)C	–	–	PB population, mouse	intravenous, 60 µg/mouse, 24 h, preincubated with venom, together with: Daboia russelii venom 2.5 x LD50	–	survival	0%
Cc1ccc(Cl)cc1N1CCN(CCCNc2ncnc3onc(-c4ccc(F)cc4)c23)CC1	SARS-CoV-2	cytopathic effect, cell-based CPE	USA_WA1/2020	round 1, 5-point dilution	–	AC50	11.2 µM
p2o (Trametes ochracea, UniProt Q7ZA32)	Nc1ccc2nc3ccc(N)cc3[s+]c2c1	steady-state kinetics	–	pH 6.5, 22 °C, apparent	–	kcat	4.2 ± 0.1 s⁻¹

Some of these lines once more:
Molecule	target or system	assay	test system	conditions	how to read	measurement	result
tricresyl phosphate	KCNH2 (Homo sapiens, UniProt Q12809)	thallium flux, inhibitor	hERG transduced cells	–	–	IC50	9.7 ± 1.6 µM
